Assay results gathered from unrelated publications.
Compare with care: the assays were run in different laboratories. ± gives the spread as reported.

`C=C(c1cc(F)c(C(=O)O)c(F)c1)c1cc2c(cc1C)C(C)(C)CCC2(C)C` — result for “log2 fold change”: -0.3 (RNA sequencing, measured: Scd1; rat, brain; dose not given, 24 h; relative to: vehicle).
`CCCC[C@H](NC(=O)[C@@H](NC(=O)[C@H](CC(=O)O)NC(=O)[C@H](CCC(N)=O)NC(=O)[C@H](CC(C)C)NC(=O)[C@H](CC(C)C)NC(=O)[C@H](CCCN)NC(=O)[C@H](CCCNC(=N)N)NC(=O)[C@H](C)NC(=O)[C@H](CO)NC(=O)[C@H](CC(C)C)NC(=O)[C@H](CCC(N)=O)NC(=O)[C@H](CC)NC(=O)[C@H](CC(C)C)NC(=O)[C@@H](NC(=O)[C@H](CCCN)NC(=O)[C@H](CCCNC(=N)N)NC(=O)[C@H](Cc1ccc(O)cc1)NC(=O)[C@H](CO)NC(=O)[C@H](CCC(N)=O)NC(=O)[C@@H](NC(=O)[C@H](Cc1ccccc1)NC(=O)[C@@H](NC(=O)[C@H](C)NC(=O)[C@H](CC(=O)O)NC(=O)[C@H](C)NC(=O)CCc1ccc(O)cc1)[C@@H](C)CC)[C@@H](C)O)C(C)C)[C@@H](C)CC)C(=O)N[C@@H](CC(=O)O)C(=O)N[C@@H](CCCNC(=N)N)C(=O)NCCCCC(N)=O` gave a relative potency of 1 to 4 fold (GH release; rat, male, serum; subcutaneous, dose not given, 15 and 30 min; relative to: reference GHRH agonist JI-38).
With `N[C@@H](CO)C(=O)N1CCC[C@H]1C(=O)NCC(=O)NCC(=O)O` the activation energy was 17.7 ± 1.2 kcal/mol (diketopiperazine formation, Arrhenius plot, ESI-MS; 1-propanol; 70, 80, 90 °C, 0.5% acetic acid).
For `Cc1cc(O)c(C=O)c2c1C(=O)Oc1c(CO)c(O)c3c(c1O2)C(O)OC3=O` (stereo not shown), “sperm with detached head” read 26.5 ± 4.85% (rat, male, streptozotocin-induced diabetes, cauda epididymis; 5 mg/kg, 9 weeks).
For `[2H]C([2H])([2H])C(c1cc2nnc(-c3cc(F)ccc3F)n2nc1OCc1ncnn1C)(C([2H])([2H])[2H])C([2H])([2H])[2H]`, “afterdischarge duration change” read -66% (amygdala-kindled Wistar rats, cortex; oral, 30 mg/kg, 2 h before stimulation; relative to: baseline).
`CC(C)CCC[C@@H](C)[C@H]1CC[C@H]2[C@@H]3CC=C4C[C@@H](OS(=O)(=O)O)CC[C@]4(C)[C@H]3CC[C@]12C`: “concentration doubling prothrombin time” over 3000 µM (normal human plasma; 37 °C, highest tested 3000 µM, added: thromboplastin-D).
With `CCCC[C@H](NC(=O)[C@@H](NC(=O)[C@H](CC(=O)O)NC(=O)[C@H](CCC(N)=O)NC(=O)[C@H](CC(C)C)NC(=O)[C@H](CC(C)C)NC(=O)[C@H](CCCN)NC(=O)[C@H](CCCNC(=N)N)NC(=O)[C@H](C)NC(=O)[C@H](CO)NC(=O)[C@H](CC(C)C)NC(=O)[C@H](CCC(N)=O)NC(=O)[C@H](CC)NC(=O)[C@H](CC(C)C)NC(=O)[C@@H](NC(=O)[C@H](CCCN)NC(=O)[C@H](CCCNC(=N)N)NC(=O)[C@H](Cc1ccc(O)cc1)NC(=O)[C@H](CO)NC(=O)[C@H](CCC(N)=O)NC(=O)[C@@H](NC(=O)[C@H](Cc1ccccc1)NC(=O)[C@@H](NC(=O)[C@H](C)NC(=O)[C@H](CC(=O)O)NC(=O)[C@H](C)NC(=O)[C@H](Cc1ccc(O)cc1)NC)[C@@H](C)CC)[C@@H](C)O)C(C)C)[C@@H](C)CC)C(=O)N[C@@H](CC(=O)O)C(=O)N[C@@H](CCCNC(=N)N)C(=O)NC` the relative potency was 450 (GH release; male rat, serum; subcutaneous, dose not given, 30 min; relative to: GHRH(1-29)NH2).
With `CCCCSc1nnc(-c2ccc(N)cc2)o1` the H2O2 scavenging was 58% (IC50).
The relative potency of `CCCC[C@H](NC(=O)[C@@H](NC(=O)[C@H](CC(=O)O)NC(=O)[C@H](CCC(N)=O)NC(=O)[C@H](CC(C)C)NC(=O)[C@H](CC(C)C)NC(=O)[C@H](CCCN)NC(=O)[C@H](CCCNC(=N)N)NC(=O)[C@H](C)NC(=O)[C@H](CO)NC(=O)[C@H](CC(C)C)NC(=O)[C@H](CCC(N)=O)NC(=O)[C@H](CC)NC(=O)[C@H](CC(C)C)NC(=O)[C@@H](NC(=O)[C@H](CCCN)NC(=O)[C@H](CCCNC(=N)N)NC(=O)[C@H](Cc1ccc(O)cc1)NC(=O)[C@H](CO)NC(=O)[C@H](CCC(N)=O)NC(=O)[C@@H](NC(=O)[C@H](Cc1ccccc1)NC(=O)[C@@H](NC(=O)[C@H](C)NC(=O)[C@H](CC(=O)O)NC(=O)[C@@H](C)NC(=O)CCc1ccc(O)cc1)[C@@H](C)CC)[C@@H](C)O)C(C)C)[C@@H](C)CC)C(=O)N[C@@H](CC(=O)O)C(=O)N[C@H](CCCNC(=N)N)C(=O)NC` is reported as 1 to 4 fold (GH release; rat, male, serum; subcutaneous, dose not given, 15 and 30 min; relative to: reference GHRH agonist JI-38).
Under “liver to body weight ratio”, `CC(CCC(=O)NCc1ccc(C(=O)NO)cc1)C1CCC2C3C(O)CC4CC(O)CCC4(C)C3CCC12C` (stereo not shown) is recorded as “decreased” (PCK rats; oral gavage, 15 mg/kg/day, 5 months; relative to: untreated).
